Published values pooled from the literature.

| Structure (SMILES) | test | system | conditions | endpoint | result |
| --- | --- | --- | --- | --- | --- |
| CN[C@@H]1COc2c(S(=O)(=O)NC(=O)Nc3c4c(cc5c3CCC5)CCC4)cnn2C1 |  | human, urine | oral, 1800 mg, 0-48 h | fraction excreted in urine | 0.137 |
| O=C(c1nc2n(n1)[C@H](c1ccccc1)C[C@@H]2F)C1CC1 |  | human | 5 mg single dose | fraction excreted in urine 0-72 h | 0.1 to 0.3% |
| CC(C)(Sc1ccncc1-c1ccc(C#N)c2ccccc12)C(=O)O |  | human, urine | oral, 5 mg, added: febuxostat 0 mg | fraction excreted in urine (0-24 h) | 1.74% |
| C=CC(=O)Nc1cc(Nc2ncc(C(=O)OC(C)C)c(-c3cn(C)c4ccccc34)n2)c(OC)cc1N(C)CCN(C)C |  | healthy human, urine | oral, 80 mg single dose, arithmetic mean | fraction of dose excreted | 0.74% |
| CNC(=O)c1ccc(-c2cnc3ncc(Cc4ccc5ncccc5c4)n3n2)cc1F | ultrafiltration | human mild hepatic function, plasma | oral, 200 mg, 3 h post-dose, geometric mean | fraction unbound | 0.031 |
| C[C@@H](Oc1ccc(S(C)(=O)=O)cc1C(=O)N1C[C@@H]2C[C@]2(c2cc(C(F)(F)F)on2)C1)C(F)(F)F |  | elderly humans, urine | oral, 25 mg once daily, 0-24 h, single dose, geometric mean | fraction excreted in urine | 2.08% |
| Cc1cc(-c2nccc3c2ccn3CC(=O)Nc2ccc(-c3cnccn3)cn2)ccn1 |  | human, urine | oral, 20 mg once daily, day 1, geometric mean | fraction excreted in urine (fe) | 0.765% |
| Cn1cc(-c2cn3nccc3c(-c3cnn([C@]4(CC#N)C[C@@H](C#N)C4)c3)n2)cn1 |  | human, urine | oral, 1200 mg once daily, day 10, dosing interval geometric mean | fraction excreted unchanged in urine | 1.2% |

Excerpt of the above:
| Structure (SMILES) | test | system | conditions | endpoint | result |
| --- | --- | --- | --- | --- | --- |
| Cn1cc(-c2cn3nccc3c(-c3cnn([C@]4(CC#N)C[C@@H](C#N)C4)c3)n2)cn1 |  | human, urine | oral, 1200 mg once daily, day 10, dosing interval geometric mean | fraction excreted unchanged in urine | 1.2% |
